Earlier results that unrelated publications cite.
UniProt Q92772, sequence (whole entry, looked up): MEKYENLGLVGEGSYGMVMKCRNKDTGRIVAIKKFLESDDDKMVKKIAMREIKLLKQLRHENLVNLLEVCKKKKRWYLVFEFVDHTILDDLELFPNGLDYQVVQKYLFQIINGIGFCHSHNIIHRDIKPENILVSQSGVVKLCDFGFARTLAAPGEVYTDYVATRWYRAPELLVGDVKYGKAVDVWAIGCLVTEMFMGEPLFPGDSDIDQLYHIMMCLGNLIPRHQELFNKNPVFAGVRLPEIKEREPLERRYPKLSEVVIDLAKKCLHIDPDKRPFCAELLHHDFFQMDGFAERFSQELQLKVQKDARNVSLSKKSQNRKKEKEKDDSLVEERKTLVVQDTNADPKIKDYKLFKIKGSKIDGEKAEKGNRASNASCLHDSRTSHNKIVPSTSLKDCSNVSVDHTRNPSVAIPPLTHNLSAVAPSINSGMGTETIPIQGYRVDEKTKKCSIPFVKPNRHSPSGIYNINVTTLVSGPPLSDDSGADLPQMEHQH

| SMILES | target or system | assay | system | conditions | scale | measurement | result |
| --- | --- | --- | --- | --- | --- | --- | --- |
| Nc1cc(C(F)(F)F)c(-c2nc(N3CCOCC3)nc(N3CCOCC3)n2)cn1 | CDKL2 (Homo sapiens, UniProt Q92772) | enzyme activity |  | 10 µM | relative to: untreated | remaining activity | 100% |
| O=c1[nH]c(=O)n([C@@H]2O[C@H](CO)[C@@H](O)[C@@H]2F)cc1CCCC[18F] |  |  | 1-octanol/0.1 M NaH2PO4 | pH 7.47 |  | logP | 0.27 |
| CCn1c(=O)c2c(nc(/C=C/c3ccc(OC)c(OC)c3)n2C)n(CC)c1=O |  |  | octanol/water |  |  | logP | 2.96 |
| C#C[C@]1(O)CC[C@H]2[C@@H]3CCc4cc(O)ccc4[C@H]3CC[C@@]21C |  |  |  |  |  | logP | 3.67 |
| O=c1cc(-c2ccc(O)cc2)oc2c([C@@H]3O[C@H](CO)[C@@H](O)[C@H](O)[C@H]3O)c(O)cc(O)c12 |  |  |  |  |  | logP | 0.2 |
| CC[C@H]1OC(=O)[C@H](C)[C@@H](O[C@H]2C[C@@](C)(OC)[C@@H](O)[C@H](C)O2)[C@H](C)[C@@H](O[C@@H]2O[C@H](C)C[C@H](N(C)C)[C@H]2O)[C@](C)(OC)C[C@@H](C)C(=O)[C@H](C)[C@@H](O)[C@]1(C)O |  |  |  |  |  | logP | 3.13 |
| N=C(N)NCCCNC(=O)[C@@H]1CCCCN1C(=O)[C@@H](CC1CCCCC1)NCC(=O)O |  |  | octanol/water |  |  | logP | -0.6 |
| CC(O)C(C)n1ncn(-c2ccc(N3CCN(c4ccc(OCC5COC(Cn6cncn6)(c6ccc(Cl)cc6Cl)O5)cc4)CC3)cc2)c1=O (stereo not shown) |  | calculated | octanol/water |  |  | logP | 4.78 |
| CCCN(CCC)S(=O)(=O)c1ccc(C(=O)O)cc1 |  |  |  |  |  | logP | 3.2 |
| CC1(C)S[C@@H]2[C@H](NC(=O)[C@H](N)c3ccccc3)C(=O)N2[C@H]1C(=O)O | Acinetobacter baumannii |  | clinical isolate RKI-No_19/09 |  |  | MIC | > 16 µg/mL |
| O=C(O)c1cc([N+](=O)[O-])ccc1NCCCc1ccccc1 |  |  |  |  |  | logP | 4.1 |
| CC(=O)Nc1ccc(O)cc1 |  |  |  |  |  | logP | 0.5 |
| CC(O)C(C)n1ncn(-c2ccc(N3CCN(c4ccc(OCC5COC(Cn6cncn6)(c6ccc(Cl)cc6Cl)O5)cc4)CC3)cc2)c1=O (stereo not shown) |  |  |  | Simcyp input parameter |  | logP | 4.5 |
| O=C1Nc2ccc(Cl)cc2[C@@](C#CC2CC2)(C(F)(F)F)O1 |  |  |  |  |  | logP | 3.44 |
| CCCCCCCOC(=O)c1ccc(O)cc1 |  | octanol-water |  |  |  | logP | 4.83 |
| O=c1[nH]c(=O)n([C@H]2C[C@H](O)[C@@H](CO)O2)cc1CCCCC[18F] |  |  | 1-octanol/0.1 M NaH2PO4 | pH 7.47 |  | logP | 0.23 |
| Cn1cncc1[C@@](N)(c1ccc(Cl)cc1)c1ccc2c(c1)c(-c1cccc(Cl)c1)cc(=O)n2C |  |  |  |  |  | logP | 4.41 |
| COC(=O)[C@H](c1ccccc1Cl)N1CCc2sccc2C1 |  |  |  |  |  | logP | 3.23 |
| COc1ccc(Cl)cc1C(=O)NCCc1ccc(S(=O)(=O)NC(=O)NC2CCCCC2)cc1 |  |  |  |  |  | logP | 4.8 |
| CN(C)[C@@H]1C(O)=C(C(N)=O)C(=O)[C@@]2(O)C(O)=C3C(=O)c4c(O)cccc4[C@@](C)(O)[C@H]3[C@H](O)[C@@H]12 |  |  |  |  |  | logP | -2.13 |
| CCCCCCCCOC(=O)c1ccc(O)cc1 |  | octanol-water |  |  |  | logP | 5.13 |
| O=c1c2ccccc2[nH]c2ccccc12 |  |  |  |  |  | logP | 3 |
| CC(C)(C)NCC(O)c1cc(O)cc(O)c1 (stereo not shown) |  |  | octanol/water |  |  | logP | -0.08 |
| CNC(C)C1CCC(N)C(OC2C(N)CC(N)C(OC3OCC(C)(O)C(NC)C3O)C2O)O1 (stereo not shown) | Acinetobacter baumannii |  | clinical isolate RKI-No_523/16 |  |  | MIC | > 8 µg/mL |
| CC/C(=C(/CC)c1ccc(O)cc1)c1ccc(O)cc1 |  |  |  |  |  | logP | 5.07 |
| CCCCCCCC(=O)c1c(O)cc(O)cc1CC(=O)OCC |  |  |  |  |  | logP | 7.33 |
| O=C(C1CCCCC1)N1CC(=O)N2CCc3ccccc3C2C1 (stereo not shown) |  |  |  |  |  | logP | 2.46 |
| CCOC(=O)c1ccc(O)cc1 |  | octanol-water |  |  |  | logP | 2.47 |

Excerpt of the above:
| SMILES | target or system | assay | system | conditions | scale | measurement | result |
| --- | --- | --- | --- | --- | --- | --- | --- |
| CCCN(CCC)S(=O)(=O)c1ccc(C(=O)O)cc1 |  |  |  |  |  | logP | 3.2 |
| CC1(C)S[C@@H]2[C@H](NC(=O)[C@H](N)c3ccccc3)C(=O)N2[C@H]1C(=O)O | Acinetobacter baumannii |  | clinical isolate RKI-No_19/09 |  |  | MIC | > 16 µg/mL |
| O=C(O)c1cc([N+](=O)[O-])ccc1NCCCc1ccccc1 |  |  |  |  |  | logP | 4.1 |
